Assay results from different studies.
A part holds a random share of what one study measured.
Sequence of UniProt P57078 (whole entry, looked up): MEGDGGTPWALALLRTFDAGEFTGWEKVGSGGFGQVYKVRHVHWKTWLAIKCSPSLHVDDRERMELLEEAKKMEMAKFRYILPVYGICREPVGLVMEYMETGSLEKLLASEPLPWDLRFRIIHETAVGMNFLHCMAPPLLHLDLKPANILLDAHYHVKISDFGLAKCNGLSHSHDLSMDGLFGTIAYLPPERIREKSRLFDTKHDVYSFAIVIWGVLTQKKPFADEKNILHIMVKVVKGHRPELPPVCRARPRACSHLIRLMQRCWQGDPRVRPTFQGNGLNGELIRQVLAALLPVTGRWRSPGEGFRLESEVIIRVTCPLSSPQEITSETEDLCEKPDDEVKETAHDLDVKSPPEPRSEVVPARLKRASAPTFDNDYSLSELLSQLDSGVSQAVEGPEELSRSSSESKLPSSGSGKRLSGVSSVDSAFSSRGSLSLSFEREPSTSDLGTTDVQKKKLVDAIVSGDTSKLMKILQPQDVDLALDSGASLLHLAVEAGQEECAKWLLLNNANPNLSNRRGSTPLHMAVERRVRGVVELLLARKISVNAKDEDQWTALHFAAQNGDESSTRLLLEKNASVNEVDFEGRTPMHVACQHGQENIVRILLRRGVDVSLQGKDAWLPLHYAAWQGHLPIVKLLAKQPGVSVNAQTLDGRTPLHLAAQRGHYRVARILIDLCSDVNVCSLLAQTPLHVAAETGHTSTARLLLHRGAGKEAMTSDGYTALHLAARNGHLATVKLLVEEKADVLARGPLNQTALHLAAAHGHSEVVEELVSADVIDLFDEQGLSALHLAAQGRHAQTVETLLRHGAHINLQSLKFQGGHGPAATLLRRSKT
Sequence of UniProt Q86Y07 (whole entry, looked up): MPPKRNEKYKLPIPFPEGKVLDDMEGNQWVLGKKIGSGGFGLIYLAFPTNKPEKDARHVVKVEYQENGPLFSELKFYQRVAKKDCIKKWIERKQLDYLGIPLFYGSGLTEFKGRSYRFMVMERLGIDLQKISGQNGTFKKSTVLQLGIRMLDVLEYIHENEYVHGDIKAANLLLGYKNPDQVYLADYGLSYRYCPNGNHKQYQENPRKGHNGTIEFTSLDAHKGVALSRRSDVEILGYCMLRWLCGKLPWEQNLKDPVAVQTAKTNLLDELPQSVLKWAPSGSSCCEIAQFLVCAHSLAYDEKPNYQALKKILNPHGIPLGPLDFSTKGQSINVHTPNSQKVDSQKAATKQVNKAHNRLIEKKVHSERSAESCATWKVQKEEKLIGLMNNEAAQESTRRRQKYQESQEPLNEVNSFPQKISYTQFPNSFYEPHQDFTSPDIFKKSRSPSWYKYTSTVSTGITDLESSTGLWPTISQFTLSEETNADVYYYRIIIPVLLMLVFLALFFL
Sequence of UniProt Q8N752 (whole entry, looked up): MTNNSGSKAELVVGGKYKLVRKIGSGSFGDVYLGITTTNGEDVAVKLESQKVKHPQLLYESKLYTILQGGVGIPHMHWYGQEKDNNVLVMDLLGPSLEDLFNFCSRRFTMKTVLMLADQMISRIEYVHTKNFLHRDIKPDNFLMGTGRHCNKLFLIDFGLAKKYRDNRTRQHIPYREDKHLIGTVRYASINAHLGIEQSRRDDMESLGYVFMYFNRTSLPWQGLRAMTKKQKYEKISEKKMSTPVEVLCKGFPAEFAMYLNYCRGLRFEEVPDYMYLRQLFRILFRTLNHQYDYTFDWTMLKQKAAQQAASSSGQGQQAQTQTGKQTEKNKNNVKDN
Sequence of UniProt O95835 (whole entry, looked up): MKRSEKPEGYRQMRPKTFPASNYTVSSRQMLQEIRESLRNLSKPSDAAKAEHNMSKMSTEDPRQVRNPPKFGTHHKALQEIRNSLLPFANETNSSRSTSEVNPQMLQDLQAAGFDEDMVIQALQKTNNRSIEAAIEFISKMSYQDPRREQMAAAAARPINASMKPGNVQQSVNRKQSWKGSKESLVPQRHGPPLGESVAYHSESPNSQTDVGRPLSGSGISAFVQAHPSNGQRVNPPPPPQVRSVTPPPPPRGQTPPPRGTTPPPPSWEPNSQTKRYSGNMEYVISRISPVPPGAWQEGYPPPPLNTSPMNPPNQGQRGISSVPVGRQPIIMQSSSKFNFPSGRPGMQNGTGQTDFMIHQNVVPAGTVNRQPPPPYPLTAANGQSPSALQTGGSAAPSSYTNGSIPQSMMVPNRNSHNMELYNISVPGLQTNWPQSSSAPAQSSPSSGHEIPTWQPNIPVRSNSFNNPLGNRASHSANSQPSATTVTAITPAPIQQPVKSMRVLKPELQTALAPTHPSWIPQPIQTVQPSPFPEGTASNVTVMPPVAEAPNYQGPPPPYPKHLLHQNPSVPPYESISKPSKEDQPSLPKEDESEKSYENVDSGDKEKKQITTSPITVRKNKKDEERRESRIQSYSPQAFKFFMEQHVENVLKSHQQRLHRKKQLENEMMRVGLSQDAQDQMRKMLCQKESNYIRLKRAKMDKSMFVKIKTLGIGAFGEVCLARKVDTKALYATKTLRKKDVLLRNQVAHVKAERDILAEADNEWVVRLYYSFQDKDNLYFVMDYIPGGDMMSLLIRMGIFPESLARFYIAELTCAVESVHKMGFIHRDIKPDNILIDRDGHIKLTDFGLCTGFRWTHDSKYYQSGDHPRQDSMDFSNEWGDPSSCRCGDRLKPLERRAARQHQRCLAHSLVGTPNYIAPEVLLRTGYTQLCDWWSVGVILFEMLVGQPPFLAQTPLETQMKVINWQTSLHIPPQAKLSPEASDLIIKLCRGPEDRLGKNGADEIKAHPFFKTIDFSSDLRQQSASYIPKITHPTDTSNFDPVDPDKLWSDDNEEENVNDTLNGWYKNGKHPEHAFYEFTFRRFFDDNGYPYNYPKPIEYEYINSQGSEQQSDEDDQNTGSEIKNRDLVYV
Sequence of UniProt Q5VT25 (whole entry, looked up): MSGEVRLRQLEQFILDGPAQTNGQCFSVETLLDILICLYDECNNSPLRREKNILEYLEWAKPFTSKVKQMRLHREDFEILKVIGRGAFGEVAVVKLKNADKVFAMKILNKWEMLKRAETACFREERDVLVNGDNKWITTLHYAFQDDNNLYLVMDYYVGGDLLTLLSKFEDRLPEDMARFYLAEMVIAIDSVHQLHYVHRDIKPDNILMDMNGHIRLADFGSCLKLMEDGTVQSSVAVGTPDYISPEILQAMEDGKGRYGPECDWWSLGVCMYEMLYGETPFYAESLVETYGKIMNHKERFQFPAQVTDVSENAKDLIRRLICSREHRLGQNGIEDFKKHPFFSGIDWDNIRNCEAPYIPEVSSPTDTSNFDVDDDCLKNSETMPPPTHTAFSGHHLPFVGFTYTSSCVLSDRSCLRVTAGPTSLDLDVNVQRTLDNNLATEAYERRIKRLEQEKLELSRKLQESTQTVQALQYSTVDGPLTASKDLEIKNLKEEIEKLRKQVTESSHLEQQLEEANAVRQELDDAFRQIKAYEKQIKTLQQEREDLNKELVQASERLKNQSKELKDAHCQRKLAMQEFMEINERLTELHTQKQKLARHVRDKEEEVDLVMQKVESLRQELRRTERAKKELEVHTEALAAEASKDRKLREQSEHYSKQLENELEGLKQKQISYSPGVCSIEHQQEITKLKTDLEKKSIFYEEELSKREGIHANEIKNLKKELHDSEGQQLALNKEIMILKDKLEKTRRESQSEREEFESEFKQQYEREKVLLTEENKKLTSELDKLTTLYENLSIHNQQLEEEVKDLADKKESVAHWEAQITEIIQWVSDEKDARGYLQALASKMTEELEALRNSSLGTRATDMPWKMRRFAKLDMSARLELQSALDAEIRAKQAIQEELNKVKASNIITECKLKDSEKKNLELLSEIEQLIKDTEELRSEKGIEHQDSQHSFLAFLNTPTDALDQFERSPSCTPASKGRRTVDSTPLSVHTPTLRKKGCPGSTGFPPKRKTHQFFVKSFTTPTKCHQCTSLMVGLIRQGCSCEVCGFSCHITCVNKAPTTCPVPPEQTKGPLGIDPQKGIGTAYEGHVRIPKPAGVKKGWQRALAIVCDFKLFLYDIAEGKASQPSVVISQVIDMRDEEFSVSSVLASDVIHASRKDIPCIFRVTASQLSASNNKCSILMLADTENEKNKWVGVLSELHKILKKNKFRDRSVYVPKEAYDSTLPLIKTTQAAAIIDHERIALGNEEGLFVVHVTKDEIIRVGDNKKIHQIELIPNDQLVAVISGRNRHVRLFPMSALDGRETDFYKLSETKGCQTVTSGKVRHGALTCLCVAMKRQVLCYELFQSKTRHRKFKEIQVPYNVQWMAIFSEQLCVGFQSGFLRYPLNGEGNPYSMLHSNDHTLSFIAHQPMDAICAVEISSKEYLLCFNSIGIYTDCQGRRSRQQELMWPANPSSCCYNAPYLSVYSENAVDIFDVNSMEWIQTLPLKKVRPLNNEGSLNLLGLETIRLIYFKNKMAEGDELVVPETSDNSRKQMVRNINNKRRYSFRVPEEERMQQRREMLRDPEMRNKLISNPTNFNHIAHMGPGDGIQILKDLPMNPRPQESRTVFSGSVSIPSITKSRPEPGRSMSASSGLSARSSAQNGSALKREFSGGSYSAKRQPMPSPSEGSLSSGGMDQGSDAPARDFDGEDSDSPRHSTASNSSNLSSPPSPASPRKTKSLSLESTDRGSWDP

Sample 1 — observed: cell-free assay; method: competition with immobilised ligand; tested at: 1 µM
SMILES: CCC(=O)N[C@@H]1CC[C@H](C(=O)N(C)c2ccc(-c3nc4ccccc4o3)cc2)C1
target | remaining binding
SGK1 (Homo sapiens, UniProt O00141) | 100%
NEK5 (Homo sapiens, UniProt Q6P3R8) | 100%
CDC42BPA (Homo sapiens, UniProt Q5VT25) | 100%
TGFBR1 (Homo sapiens, UniProt P36897) | 95%
CSNK1A1L (Homo sapiens, UniProt Q8N752) | 100%
ZAP70 (Homo sapiens, UniProt P43403) | 100%
CLK2 (Homo sapiens, UniProt P49760) | 100%
MAPK7 (Homo sapiens, UniProt Q13164) | 100%
RIPK4 (Homo sapiens, UniProt P57078) | 72%
CILK1 (Homo sapiens, UniProt Q9UPZ9) | 92%
VRK2 (Homo sapiens, UniProt Q86Y07) | 100%
LATS1 (Homo sapiens, UniProt O95835) | 58%
CDKL5 (Homo sapiens, UniProt O76039) | 100%
WNK4 (Homo sapiens, UniProt Q96J92) | 100%
COQ8B (Homo sapiens, UniProt Q96D53) | 94%
ROCK1 (Homo sapiens, UniProt Q13464) | 100%
MAK (Homo sapiens, UniProt P20794) | 100%
MET (Homo sapiens, UniProt P08581, M1250T) | 100%
CASK (Homo sapiens, UniProt O14936) | 83%
CSNK1E (Homo sapiens, UniProt P49674) | 100%

Sample 2 — observed: enzyme activity; action: inhibitor; tested at: 0.5 µM; reference: control
Target: Receptor-interacting serine/threonine-protein kinase 2 (RIPK2, Homo sapiens, UniProt O43353)
Sequence of UniProt O43353 (whole entry, looked up): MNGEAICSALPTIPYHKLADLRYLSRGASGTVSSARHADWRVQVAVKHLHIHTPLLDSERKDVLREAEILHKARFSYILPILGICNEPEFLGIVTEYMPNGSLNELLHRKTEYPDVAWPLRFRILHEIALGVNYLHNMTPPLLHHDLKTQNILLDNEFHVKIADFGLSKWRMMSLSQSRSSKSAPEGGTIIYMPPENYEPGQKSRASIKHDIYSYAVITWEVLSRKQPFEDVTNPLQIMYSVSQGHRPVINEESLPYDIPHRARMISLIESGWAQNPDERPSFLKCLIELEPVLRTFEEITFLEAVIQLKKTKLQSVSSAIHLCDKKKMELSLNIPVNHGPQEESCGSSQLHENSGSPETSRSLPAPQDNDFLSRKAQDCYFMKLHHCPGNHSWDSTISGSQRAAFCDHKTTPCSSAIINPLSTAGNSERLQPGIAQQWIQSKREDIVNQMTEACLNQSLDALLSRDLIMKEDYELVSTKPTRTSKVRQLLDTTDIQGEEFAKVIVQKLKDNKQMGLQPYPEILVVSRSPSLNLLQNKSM
SMILES | remaining activity
CN([C@@H](Cc1ccc(OS(=O)(=O)c2cccc3cnccc23)cc1)C(=O)N1CCN(c2ccccc2)CC1)S(=O)(=O)c1cccc2cnccc12 | 89.4%
O=C(NC(NC(=S)Nc1ccc(F)c([N+](=O)[O-])c1)C(Cl)(Cl)Cl)C(c1ccccc1)c1ccccc1 (centres unmarked) | 97.4%
COc1cc2ncnc(Nc3cccc(Cl)c3)c2cc1OC | 45.4%
Ic1cccc(CSc2nnc(-c3ccncc3)o2)c1 | 86.3%
O=c1cc(-c2cccc3c2Sc2ccccc2S3)oc(N2CCOCC2)c1 | 114%
c1ccc(-c2cnc(Nc3ccc(OCCN4CCCC4)cc3)s2)cc1 | 50.4%
Cn1nc2c3c(cccc31)C(=O)c1ccccc1-2 | 75.7%
Cc1cn(-c2cc(NC(=O)c3ccc(C)c(Nc4nccc(-c5cccnc5)n4)c3)cc(C(F)(F)F)c2)cn1 | 110%
CCN(CC)C(=O)c1ccc(Nc2nc(OCC3CCCCC3)c3[nH]cnc3n2)cc1 | 97.2%
Cc1nc2cc3nc(-c4cccs4)cnc3cc2n1C | 89.1%
O=C(Nc1cccc(Nc2nccc(Nc3cccc(C(F)(F)F)c3)n2)c1)C1CC1 | 81.6%
CCN(CC)CCNC(=O)c1c(C)[nH]c(/C=C2\C(=O)Nc3ccc(F)cc32)c1C | 104%

Sample 3 — action: inhibitor
Compound: Cc1nc(Nc2ncc(C(=O)Nc3c(C)cccc3Cl)s2)cc(N2CCN(CCO)CC2)n1
target | tested at | inhibition
STK10 (Homo sapiens, UniProt O94804) | 10 µM | 88%
ROS1 (Homo sapiens, UniProt P08922) | 10 µM | < 50%
CHEK2 (Homo sapiens, UniProt O96017) | 10 µM | < 50%
EPHA5 (Homo sapiens, UniProt P54756) | 10 µM | 100%
PRKAA1 (Homo sapiens, UniProt Q13131) | 10 µM | < 50%
MAST1 (Homo sapiens, UniProt Q9Y2H9) | 1 µM | < 50%
MAP3K20 (Homo sapiens, UniProt Q9NYL2) | 10 µM | 100%
CAMK1G (Homo sapiens, UniProt Q96NX5) | 10 µM | < 50%

Sample 4 — species: human; sample: microsomes or S9; tested at: 2 µM; time: 0.5 h
Compound | remaining compound
CCN1CCn2c1nc(N1CCOCC1)nc2=O | > 99.9%
CCOc1cc(/C=N/n2cnnc2)cc(Cl)c1OCCOc1cc(C)ccc1C(C)C | 51.5%
c1ccc2c(Sc3nccc4ccccc34)nccc2c1 | 4.83%
Cc1cccc(NC2=CC(c3cccs3)N(c3cccc(C)c3)C2=O)c1 (centres unmarked) | 72.7%
Cc1c(-c2nnc(Cc3ccccc3)o2)nnn1-c1ccc(C(C)C)cc1 | 75.1%
CNS(=O)(=O)c1cn(CC(=O)NCc2ccccc2OC)cc1S(=O)(=O)NC | 70.7%
O=C(Nc1nn[nH]n1)c1cc(-c2cccs2)[nH]n1 | > 100%
CC(C)c1nc(NC(=O)c2cc(-c3ccco3)n[nH]2)n[nH]1 | 89.1%
CC(C)c1noc(CCCn2ccc(-c3ccc(-c4nnn[nH]4)cc3)n2)n1 | 19.9%
CCOC(=O)Cc1cc(=O)n2nc(-c3ccccc3)c(-c3ccccc3)c2[nH]1 | 54.9%

Repeated from above (sample 1):
target | remaining binding
MAK (Homo sapiens, UniProt P20794) | 100%
MET (Homo sapiens, UniProt P08581, M1250T) | 100%
CASK (Homo sapiens, UniProt O14936) | 83%
CSNK1E (Homo sapiens, UniProt P49674) | 100%
